Measured values gathered from unrelated publications.
Each line is one published result; not all experiments were run side by side.

[Ca+2]  inhibition (Halyomorpha halys; outward current, inhibitor, electrophysiology; concentration not given): 21.3%
CO[C@H]1/C=C/O[C@@]2(C)Oc3c(C)c(O)c4c(O)c(c(/C=N/N5CCN(C)CC5)c(O)c4c3C2=O)NC(=O)/C(C)=C\C=C\[C@H](C)[C@H](O)[C@@H](C)[C@@H](O)[C@@H](C)[C@H](OC(C)=O)[C@@H]1C  MIC (Mycobacterium tuberculosis; H37Rv): 0.002 µM
NNC(=O)c1ccncc1  MIC (Mycobacterium tuberculosis; H37Rv gyrA D94K mutant): 0.06 µg/mL
Cc1cn(C2CCN(Cc3cccc(Oc4cc(Cl)cc(Cl)c4)c3)CC2)c(=O)[nH]c1=O  MIC (Mycobacterium tuberculosis; H37Rv Rv1258c (tap) knockout): 15.6 µg/mL
O=[N+]([O-])c1cn2c(n1)OC[C@@H](OCc1ccc(OC(F)(F)F)cc1)C2  MIC (Mycobacterium tuberculosis; H37Rv rpoB S450L mutant): ≤ 0.03 µg/mL
Cc1cn(C2CCN(Cc3cccc(Oc4ccccc4)n3)CC2)c(=O)[nH]c1=O  MIC (Mycobacterium tuberculosis; H37Rv Rv3065 (mmr) knockout): > 250 µg/mL
CO[C@H]1/C=C/O[C@@]2(C)Oc3c(C)c(O)c4c(O)c(c(/C=N/N5CCN(C)CC5)c(O)c4c3C2=O)NC(=O)/C(C)=C\C=C\[C@H](C)[C@H](O)[C@@H](C)[C@@H](O)[C@@H](C)[C@H](OC(C)=O)[C@@H]1C  MIC (Mycobacterium tuberculosis; H37Rv gyrA D94K mutant): 0.03 µg/mL
COC(=O)C=C1SC(=NN=Cc2ccc(OC(=O)CN3C(=O)CSC3=O)cc2)NC1=O  MIC (Mycobacterium tuberculosis; Alamar blue; MDR 210): 34.6 µM
Cc1cn(C2CCN(Cc3ccnc(Oc4cccc(Cl)c4)c3)CC2)c(=O)[nH]c1=O  MIC (Mycobacterium tuberculosis; H37Rv Rv1258c (tap) knockout): 31.2 µg/mL
NNC(=O)c1ccncc1  MIC (Mycobacterium tuberculosis; Alamar blue; MDR 210): 7.29 µM
CS(=O)(=O)Nc1ncn(-c2cc(F)c(COc3ccc(OS(=O)(=O)F)cc3)c(F)c2)n1  MIC (Mycobacterium tuberculosis; clinical strains): 0.042 µM
NC(=S)NN=Cc1ccc(OC(=O)CN2C(=O)CSC2=O)c(Cl)c1  MIC (Mycobacterium tuberculosis; Alamar blue; MDR 210): 31.6 to 45.7 µM
Oc1cc(Cl)ccc1Oc1ccc(Cl)cc1Cl  MIC (Mycobacterium tuberculosis; mc2 4914 (H37Rv-derived)): 20 µg/mL

Repeated from above:
CO[C@H]1/C=C/O[C@@]2(C)Oc3c(C)c(O)c4c(O)c(c(/C=N/N5CCN(C)CC5)c(O)c4c3C2=O)NC(=O)/C(C)=C\C=C\[C@H](C)[C@H](O)[C@@H](C)[C@@H](O)[C@@H](C)[C@H](OC(C)=O)[C@@H]1C  MIC (Mycobacterium tuberculosis; H37Rv gyrA D94K mutant): 0.03 µg/mL
Cc1cn(C2CCN(Cc3ccnc(Oc4cccc(Cl)c4)c3)CC2)c(=O)[nH]c1=O  MIC (Mycobacterium tuberculosis; H37Rv Rv1258c (tap) knockout): 31.2 µg/mL
